Measured values collected from several papers.
Each numbered part is a random draw from the data of one study; scales do not carry over between parts. Positions count from the first letter of the parent shown.
Sequence of UniProt Q9NQU5 (whole entry, looked up): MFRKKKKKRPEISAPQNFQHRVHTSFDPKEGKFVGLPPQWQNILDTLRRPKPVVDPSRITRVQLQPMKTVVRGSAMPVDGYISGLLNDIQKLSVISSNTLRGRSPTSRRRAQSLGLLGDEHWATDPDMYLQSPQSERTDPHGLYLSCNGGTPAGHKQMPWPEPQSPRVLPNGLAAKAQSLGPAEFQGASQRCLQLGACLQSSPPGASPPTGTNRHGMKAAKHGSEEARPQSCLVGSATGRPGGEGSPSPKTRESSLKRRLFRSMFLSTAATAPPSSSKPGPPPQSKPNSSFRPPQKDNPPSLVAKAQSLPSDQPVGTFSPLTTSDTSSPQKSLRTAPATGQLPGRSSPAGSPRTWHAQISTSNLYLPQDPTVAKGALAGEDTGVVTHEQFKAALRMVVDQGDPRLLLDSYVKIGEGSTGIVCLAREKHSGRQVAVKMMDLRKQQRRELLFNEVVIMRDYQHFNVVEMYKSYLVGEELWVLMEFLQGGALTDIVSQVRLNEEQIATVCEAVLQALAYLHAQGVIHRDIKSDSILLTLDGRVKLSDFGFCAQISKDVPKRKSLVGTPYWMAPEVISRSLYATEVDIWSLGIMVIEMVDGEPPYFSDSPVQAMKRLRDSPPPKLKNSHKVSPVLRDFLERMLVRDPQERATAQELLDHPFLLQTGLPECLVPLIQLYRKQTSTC
Sequence of UniProt Q9P1W9 (whole entry, looked up): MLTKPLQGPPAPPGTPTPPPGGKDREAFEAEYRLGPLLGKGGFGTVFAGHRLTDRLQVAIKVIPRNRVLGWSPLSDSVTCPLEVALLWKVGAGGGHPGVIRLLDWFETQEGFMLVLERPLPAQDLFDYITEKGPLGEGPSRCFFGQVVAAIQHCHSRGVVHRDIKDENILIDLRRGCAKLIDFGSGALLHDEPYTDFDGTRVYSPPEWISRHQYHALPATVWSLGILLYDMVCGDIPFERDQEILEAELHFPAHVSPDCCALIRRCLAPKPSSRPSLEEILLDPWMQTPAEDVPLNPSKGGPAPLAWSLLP
Sequence of UniProt Q02779 (whole entry, looked up): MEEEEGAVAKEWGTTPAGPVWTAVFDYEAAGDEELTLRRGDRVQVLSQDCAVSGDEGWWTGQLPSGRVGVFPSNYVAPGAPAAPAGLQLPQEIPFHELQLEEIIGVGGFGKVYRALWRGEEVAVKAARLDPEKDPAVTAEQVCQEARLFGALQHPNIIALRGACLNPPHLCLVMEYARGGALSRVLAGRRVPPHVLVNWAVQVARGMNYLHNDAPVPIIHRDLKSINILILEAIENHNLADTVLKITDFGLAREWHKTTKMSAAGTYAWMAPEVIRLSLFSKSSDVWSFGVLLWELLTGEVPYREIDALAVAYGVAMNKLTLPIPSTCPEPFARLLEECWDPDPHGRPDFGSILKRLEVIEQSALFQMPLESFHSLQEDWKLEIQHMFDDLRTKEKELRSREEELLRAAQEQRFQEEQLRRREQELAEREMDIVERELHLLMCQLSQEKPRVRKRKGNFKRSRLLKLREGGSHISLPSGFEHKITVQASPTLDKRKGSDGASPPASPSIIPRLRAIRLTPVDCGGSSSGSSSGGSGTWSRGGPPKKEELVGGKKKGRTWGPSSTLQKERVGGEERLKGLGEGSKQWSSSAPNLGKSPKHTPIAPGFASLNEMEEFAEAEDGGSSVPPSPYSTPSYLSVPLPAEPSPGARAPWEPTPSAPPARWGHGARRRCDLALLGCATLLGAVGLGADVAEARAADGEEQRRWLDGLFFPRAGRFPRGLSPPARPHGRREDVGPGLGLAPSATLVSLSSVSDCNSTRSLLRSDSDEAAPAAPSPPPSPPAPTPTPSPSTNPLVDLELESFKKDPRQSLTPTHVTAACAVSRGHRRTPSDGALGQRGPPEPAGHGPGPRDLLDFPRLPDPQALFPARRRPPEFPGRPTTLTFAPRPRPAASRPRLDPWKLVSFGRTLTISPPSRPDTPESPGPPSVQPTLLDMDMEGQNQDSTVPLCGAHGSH
Sequence of UniProt Q15418 (whole entry, looked up): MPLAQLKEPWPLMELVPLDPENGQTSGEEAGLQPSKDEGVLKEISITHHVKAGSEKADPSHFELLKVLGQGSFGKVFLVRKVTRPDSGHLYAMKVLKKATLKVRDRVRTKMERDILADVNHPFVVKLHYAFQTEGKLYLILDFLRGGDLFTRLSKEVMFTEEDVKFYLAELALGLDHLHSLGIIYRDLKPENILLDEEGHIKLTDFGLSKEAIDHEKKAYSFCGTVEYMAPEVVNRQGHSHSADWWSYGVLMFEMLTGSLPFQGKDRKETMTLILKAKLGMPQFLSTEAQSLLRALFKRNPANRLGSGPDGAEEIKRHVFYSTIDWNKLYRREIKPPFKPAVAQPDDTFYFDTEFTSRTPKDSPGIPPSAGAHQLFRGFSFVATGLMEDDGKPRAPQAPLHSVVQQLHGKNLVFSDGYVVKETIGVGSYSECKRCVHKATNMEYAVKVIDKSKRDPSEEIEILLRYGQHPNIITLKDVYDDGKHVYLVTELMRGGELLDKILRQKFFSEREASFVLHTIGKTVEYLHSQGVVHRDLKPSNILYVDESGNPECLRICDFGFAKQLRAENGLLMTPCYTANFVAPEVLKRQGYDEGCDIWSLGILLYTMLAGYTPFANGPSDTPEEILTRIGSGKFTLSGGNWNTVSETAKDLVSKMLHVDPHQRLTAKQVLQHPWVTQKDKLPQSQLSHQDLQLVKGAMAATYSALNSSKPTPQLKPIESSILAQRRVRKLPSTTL
Sequence of UniProt O43283 (whole entry, looked up): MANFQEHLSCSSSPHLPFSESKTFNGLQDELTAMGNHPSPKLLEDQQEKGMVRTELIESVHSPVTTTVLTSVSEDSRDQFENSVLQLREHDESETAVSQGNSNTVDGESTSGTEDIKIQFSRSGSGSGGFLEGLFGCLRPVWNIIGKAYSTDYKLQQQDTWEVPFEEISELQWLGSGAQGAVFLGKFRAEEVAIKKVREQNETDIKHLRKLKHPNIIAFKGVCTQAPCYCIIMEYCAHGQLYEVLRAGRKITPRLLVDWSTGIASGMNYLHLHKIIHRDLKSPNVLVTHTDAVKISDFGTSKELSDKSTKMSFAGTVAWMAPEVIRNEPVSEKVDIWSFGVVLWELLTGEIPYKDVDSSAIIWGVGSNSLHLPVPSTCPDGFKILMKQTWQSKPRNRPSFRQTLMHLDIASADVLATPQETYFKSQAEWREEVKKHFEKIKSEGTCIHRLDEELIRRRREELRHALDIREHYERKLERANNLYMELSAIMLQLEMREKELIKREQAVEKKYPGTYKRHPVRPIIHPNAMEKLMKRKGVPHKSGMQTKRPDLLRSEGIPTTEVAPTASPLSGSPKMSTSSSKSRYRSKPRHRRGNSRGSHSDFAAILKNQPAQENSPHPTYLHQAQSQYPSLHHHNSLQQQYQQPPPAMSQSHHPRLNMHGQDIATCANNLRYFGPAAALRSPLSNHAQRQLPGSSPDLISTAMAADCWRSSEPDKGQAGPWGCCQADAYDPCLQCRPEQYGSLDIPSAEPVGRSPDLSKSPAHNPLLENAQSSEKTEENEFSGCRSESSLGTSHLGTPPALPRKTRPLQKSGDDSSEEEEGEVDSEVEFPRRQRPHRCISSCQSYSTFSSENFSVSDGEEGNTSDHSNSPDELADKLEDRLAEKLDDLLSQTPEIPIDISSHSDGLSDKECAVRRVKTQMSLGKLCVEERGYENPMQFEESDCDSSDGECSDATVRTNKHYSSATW
Sequence of UniProt P53778 (whole entry, looked up): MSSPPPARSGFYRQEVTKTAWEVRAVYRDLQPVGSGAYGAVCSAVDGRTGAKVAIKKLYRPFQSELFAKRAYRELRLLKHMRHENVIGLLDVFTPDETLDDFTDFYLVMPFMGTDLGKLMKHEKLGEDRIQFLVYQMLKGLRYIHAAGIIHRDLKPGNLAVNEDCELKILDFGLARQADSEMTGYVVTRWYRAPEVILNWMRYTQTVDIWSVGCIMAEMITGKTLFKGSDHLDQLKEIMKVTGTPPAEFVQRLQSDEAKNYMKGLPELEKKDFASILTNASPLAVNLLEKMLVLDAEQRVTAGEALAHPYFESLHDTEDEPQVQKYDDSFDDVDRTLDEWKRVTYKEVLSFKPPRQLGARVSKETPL

Block 1
SMILES: O=C(NS(=O)(=O)c1ccc(NCC2CCOCC2)c([N+](=O)[O-])c1)c1ccc(N2CCN(Cc3ccc(C(F)(F)F)cc3-c3ccc(Cl)cc3)CC2)cc1Oc1cnc2[nH]ccc2c1
Effect on: cell-free assay
Method: competition with immobilised ligand
Concentration: 1 µM
Endpoint: remaining binding
MAP3K10 (Homo sapiens, UniProt Q02779): 95%
PIK3CA (Homo sapiens, UniProt P42336, C420R): 81%
Ribosomal protein S6 kinase alpha-1, C-terminal kinase domain (RPS6KA1, Homo sapiens, UniProt Q15418): 100%
MAPK12 (Homo sapiens, UniProt P53778): 50%
PIM2 (Homo sapiens, UniProt Q9P1W9): 73%
MAP3K13 (Homo sapiens, UniProt O43283): 91%
PAK6 (Homo sapiens, UniProt Q9NQU5): 73%
Tyrosine-protein kinase ABL1, phosphorylated (ABL1, Homo sapiens, UniProt P00519, F317L): 100%
Myosin-IIIb (MYO3B, Homo sapiens, UniProt Q8WXR4): 100%
EPHB4 (Homo sapiens, UniProt P54760): 100%

Block 2
Species: human
Matrix: microsomes or S9
Concentration: 2 µM
Time: 0.5 h
Endpoint: remaining compound
CCOc1ccc(OCC)c(NC(=O)c2cc(S(=O)(=O)N3CCOCC3)cn2C)c1: 62.6%
CCc1ccc(/C=N/n2c(C)nnc2-n2nc(C)cc2C)cc1: 4.17%
Cc1ccc(CNS(=O)(=O)c2cc(-c3ccc(=O)[nH]n3)cc(C)c2C)cc1: 0.749%
Cc1nc(O)[nH]c(=O)c1S(=O)(=O)Nc1ccccc1C(=O)NCCc1ccccc1: 81.7%
Cc1ccc2c(c1)ncc1c(-c3ccccc3)nn(-c3cccc(C)c3C)c12: 103%
COc1ccccc1CNC(=O)c1c(OCC(C)C)cc(=O)n2c1CCCCC2: 0.0537%

Block 3
Target: Ras GTPase-activating protein-binding protein 1, full length (G3BP1, Homo sapiens, UniProt Q13283)
Sequence of UniProt Q13283 (whole entry, looked up): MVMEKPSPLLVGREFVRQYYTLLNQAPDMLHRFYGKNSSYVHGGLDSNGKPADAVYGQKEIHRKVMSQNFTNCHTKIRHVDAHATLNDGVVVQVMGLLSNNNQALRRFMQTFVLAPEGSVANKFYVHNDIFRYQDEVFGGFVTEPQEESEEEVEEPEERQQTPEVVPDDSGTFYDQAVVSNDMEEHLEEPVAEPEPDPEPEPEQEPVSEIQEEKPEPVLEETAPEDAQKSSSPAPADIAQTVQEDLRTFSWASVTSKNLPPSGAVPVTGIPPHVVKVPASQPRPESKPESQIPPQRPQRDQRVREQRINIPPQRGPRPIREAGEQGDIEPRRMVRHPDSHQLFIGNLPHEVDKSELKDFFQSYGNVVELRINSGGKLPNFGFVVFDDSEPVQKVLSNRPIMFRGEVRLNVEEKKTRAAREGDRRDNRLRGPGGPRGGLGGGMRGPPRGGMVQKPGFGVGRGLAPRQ
Method: RNA Bind-n-Seq
Molecule type: RNA
Matrix: in vitro
Concentration: 200 nM
Setting: whole 134-nt RNA, ends assumed
Together with: 150 mM LiCl
Reference: input library
Direction: higher = stronger binding
Endpoint: log2 enrichment
Library: 7-deaza-guanosine replaces G
Constant ends, left off below: GGGAGUUCUACAGUCCGACGAUC … UGGAAUUCUCGGGUGUCAAGG
CUGUGCUACACAUCGUAUGUACCGAAUCGGGGUUUUUUUGGGGAAAGGGGUUUUUUUGGGGAAAGUAUUAUGUUACGCCGUUCGGAUCUG: -0.211
UGGGAGGUGGAUUUUGUUUAUUUUUUUAGCUCAUUUACAGGGGUGGGAAUUUUUUUUUAAUAUGUGUCAUGAAUAAAGUUGUUUUUGAAA: 0.65
CACAGACAACACGCACCCACACAGACACAGAGGGAAGGGGUUGGGAUGGGGGCAGGGUGCACAGCAGGGCGGGGUAGGACCCCAGCCCCU: -0.255
CUGUGCUACACAUCGUAUGUACCGAAUCGGGGUUUUUGGGGAAAAAGGGGAAAAAAAGGGGAAAGUAUUAUGUUACGCCGUUCGGAUCUG: -0.0379
GUGCUACACAUCGUAUGUACCGAAUCGGGGCCCCCCCGGGGCCCCCCCGGGGCCCCCCCGGGGAAAGUAUUAUGUUACGCCGUUCGGAUC: -1.06
UGGCCCUGGUGGCAUGCGGGGAGGAAGAGGUGGCUUCAUGGAUCGUGGUGGUCCCGGUGGAAUGUUCAGAGGUGGCCGUGGUGGAGACAG: 0.28
UGGCCCUGGCGGCAUGCGGGGAGGAAGAGGUGGCCUCAUGGAUCGUGGUGGUCCCGGUGGAAUGUUCAGAGGUGGCCGUGGUGGAGACAG: 0.272
GCAGGAAGUAAAAACAAAUGGAAAUGCUUCGGAUAGUGGCAGGGGUGGGGGUUGCUAAGGAAAGGGUGGGAUGGGAGUGGGUAAAGAGUA: 0.286

Block 4
Target: JUNB, bZIP domain (human)
Method: DHFR protein complementation
Matrix: yeast
Setting: single substitutions, most at no-binding floor
Reference: wild-type JUN-FOS pair
Direction: higher = stronger binding
Endpoint: binding fitness
Starting sequence: JUN, bZIP domain (human); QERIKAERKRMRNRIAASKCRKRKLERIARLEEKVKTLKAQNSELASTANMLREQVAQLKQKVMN; partner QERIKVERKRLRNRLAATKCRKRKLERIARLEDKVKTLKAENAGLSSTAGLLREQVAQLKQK
R30K: -1.13 natural log
A29K: -1.11 natural log
M51Q: -1.07 natural log
R53A: -1.37 natural log
E44W: -1.44 natural log
N42G: -1.37 natural log
K39Q: -0.895 natural log
L45F: -1.52 natural log

For quick reference, copied from above (block 4):
E44W: -1.44 natural log
R53A: -1.37 natural log
